Published values pooled from the literature.
Each line is one published result; not all experiments were run side by side. ± marks the error that the study gave.
lecA: PA-I galactophilic lectin (lecA, Pseudomonas aeruginosa, UniProt Q05097)
Chain of UniProt Q05097 (whole entry, looked up): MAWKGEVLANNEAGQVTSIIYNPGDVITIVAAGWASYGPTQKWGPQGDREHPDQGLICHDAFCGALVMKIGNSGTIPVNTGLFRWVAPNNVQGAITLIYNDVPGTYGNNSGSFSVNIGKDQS
Klotho: Klotho (Homo sapiens, UniProt Q9UEF7)
Chain of UniProt Q9UEF7 (whole entry, looked up): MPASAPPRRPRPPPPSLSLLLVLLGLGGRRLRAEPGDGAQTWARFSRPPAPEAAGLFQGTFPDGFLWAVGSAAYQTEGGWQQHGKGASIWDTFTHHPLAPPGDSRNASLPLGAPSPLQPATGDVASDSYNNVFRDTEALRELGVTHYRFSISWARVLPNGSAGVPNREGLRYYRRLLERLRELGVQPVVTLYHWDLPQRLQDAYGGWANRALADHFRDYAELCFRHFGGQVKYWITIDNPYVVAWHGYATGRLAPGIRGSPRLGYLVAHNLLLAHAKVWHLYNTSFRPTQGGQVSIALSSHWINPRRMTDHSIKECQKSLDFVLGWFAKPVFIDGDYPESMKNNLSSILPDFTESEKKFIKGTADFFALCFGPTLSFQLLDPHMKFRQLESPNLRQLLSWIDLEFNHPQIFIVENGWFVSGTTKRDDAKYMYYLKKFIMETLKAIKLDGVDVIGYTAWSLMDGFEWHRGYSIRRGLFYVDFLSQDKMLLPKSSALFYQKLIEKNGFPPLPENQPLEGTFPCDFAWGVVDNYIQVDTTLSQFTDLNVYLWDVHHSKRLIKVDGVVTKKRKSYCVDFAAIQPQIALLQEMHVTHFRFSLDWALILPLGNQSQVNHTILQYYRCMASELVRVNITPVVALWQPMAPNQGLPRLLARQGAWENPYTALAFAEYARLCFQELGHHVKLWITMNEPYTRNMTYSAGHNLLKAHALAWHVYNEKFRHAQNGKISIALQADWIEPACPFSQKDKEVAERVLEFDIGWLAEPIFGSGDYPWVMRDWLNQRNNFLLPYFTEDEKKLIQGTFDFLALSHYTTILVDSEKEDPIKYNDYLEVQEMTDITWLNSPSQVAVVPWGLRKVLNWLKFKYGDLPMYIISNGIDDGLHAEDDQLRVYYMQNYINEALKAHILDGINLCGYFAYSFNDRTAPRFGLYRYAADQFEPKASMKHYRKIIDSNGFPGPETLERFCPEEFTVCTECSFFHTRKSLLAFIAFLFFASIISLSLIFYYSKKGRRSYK
Chain of UniProt P12004 (whole entry, looked up): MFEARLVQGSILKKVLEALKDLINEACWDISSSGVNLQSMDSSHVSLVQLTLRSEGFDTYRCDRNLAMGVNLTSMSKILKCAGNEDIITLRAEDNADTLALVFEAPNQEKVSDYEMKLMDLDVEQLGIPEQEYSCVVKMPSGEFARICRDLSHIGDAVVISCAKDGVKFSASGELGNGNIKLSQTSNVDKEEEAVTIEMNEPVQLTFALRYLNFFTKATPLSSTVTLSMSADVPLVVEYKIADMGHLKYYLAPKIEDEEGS
Chain of UniProt Q9NZC7 (whole entry, looked up): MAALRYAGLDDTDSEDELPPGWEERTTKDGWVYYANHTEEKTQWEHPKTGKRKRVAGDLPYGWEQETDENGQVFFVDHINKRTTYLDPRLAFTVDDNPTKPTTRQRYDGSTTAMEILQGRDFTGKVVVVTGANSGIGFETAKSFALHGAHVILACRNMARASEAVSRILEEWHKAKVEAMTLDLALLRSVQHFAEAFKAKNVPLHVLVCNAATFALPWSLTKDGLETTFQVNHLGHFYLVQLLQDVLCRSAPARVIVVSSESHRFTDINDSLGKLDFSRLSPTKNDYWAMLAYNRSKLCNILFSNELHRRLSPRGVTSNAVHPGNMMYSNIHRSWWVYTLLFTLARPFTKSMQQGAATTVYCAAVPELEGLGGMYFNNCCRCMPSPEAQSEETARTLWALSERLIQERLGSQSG
Chain of UniProt Q15109 (whole entry, looked up): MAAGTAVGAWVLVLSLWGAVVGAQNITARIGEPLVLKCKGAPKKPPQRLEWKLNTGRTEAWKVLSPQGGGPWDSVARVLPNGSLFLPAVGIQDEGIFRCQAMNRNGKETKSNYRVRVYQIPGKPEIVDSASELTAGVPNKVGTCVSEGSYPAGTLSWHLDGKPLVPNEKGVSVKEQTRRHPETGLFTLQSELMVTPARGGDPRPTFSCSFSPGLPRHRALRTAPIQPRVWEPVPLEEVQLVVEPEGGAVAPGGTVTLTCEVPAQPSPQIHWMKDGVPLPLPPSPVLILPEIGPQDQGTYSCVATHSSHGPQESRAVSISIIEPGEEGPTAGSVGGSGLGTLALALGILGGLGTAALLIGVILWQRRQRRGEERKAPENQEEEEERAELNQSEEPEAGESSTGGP
Chain of UniProt P22455 (whole entry, looked up): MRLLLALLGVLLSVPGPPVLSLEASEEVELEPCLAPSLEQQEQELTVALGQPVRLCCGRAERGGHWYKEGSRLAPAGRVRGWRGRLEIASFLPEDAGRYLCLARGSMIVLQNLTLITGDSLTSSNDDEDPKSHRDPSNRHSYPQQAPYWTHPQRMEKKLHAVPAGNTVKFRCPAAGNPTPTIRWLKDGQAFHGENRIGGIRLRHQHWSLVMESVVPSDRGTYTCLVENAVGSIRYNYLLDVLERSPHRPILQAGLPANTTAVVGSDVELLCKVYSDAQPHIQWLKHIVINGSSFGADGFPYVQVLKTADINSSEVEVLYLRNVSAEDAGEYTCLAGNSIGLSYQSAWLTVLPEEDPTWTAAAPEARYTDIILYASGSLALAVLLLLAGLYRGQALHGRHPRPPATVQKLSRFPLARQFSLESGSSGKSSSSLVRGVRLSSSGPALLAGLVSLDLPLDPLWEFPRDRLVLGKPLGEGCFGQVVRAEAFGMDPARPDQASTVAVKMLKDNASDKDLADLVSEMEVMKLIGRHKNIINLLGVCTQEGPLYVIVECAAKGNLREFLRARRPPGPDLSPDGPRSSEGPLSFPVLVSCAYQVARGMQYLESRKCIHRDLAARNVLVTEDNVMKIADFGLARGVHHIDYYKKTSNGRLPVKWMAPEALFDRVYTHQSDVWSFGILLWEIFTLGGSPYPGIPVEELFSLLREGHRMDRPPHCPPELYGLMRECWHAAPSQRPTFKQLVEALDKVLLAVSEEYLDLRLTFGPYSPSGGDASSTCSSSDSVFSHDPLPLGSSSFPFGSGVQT
Chain of UniProt Q9Y6Y9 (whole entry, looked up): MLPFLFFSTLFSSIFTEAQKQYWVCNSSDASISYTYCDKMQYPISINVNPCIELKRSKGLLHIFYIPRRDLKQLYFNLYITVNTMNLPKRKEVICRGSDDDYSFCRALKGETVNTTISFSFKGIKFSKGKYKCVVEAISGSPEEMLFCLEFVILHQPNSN
Chain of UniProt Q9FIP9 (whole entry, looked up): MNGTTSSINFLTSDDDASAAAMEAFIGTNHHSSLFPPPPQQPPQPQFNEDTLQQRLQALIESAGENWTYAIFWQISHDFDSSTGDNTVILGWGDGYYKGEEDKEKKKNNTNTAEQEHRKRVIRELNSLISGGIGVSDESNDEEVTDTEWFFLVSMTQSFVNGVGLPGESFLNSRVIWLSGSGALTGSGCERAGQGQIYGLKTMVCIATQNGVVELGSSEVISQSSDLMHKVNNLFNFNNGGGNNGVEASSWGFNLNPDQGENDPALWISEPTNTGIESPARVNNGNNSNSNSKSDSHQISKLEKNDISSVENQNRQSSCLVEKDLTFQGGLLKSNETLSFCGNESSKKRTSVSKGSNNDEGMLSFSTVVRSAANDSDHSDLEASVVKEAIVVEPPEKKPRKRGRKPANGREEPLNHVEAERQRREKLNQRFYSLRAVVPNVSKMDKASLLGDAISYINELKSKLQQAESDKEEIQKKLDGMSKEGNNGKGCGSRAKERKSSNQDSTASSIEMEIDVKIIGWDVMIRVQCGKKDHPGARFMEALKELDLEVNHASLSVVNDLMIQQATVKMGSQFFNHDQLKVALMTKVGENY
Chain of UniProt Q07741 (whole entry, looked up): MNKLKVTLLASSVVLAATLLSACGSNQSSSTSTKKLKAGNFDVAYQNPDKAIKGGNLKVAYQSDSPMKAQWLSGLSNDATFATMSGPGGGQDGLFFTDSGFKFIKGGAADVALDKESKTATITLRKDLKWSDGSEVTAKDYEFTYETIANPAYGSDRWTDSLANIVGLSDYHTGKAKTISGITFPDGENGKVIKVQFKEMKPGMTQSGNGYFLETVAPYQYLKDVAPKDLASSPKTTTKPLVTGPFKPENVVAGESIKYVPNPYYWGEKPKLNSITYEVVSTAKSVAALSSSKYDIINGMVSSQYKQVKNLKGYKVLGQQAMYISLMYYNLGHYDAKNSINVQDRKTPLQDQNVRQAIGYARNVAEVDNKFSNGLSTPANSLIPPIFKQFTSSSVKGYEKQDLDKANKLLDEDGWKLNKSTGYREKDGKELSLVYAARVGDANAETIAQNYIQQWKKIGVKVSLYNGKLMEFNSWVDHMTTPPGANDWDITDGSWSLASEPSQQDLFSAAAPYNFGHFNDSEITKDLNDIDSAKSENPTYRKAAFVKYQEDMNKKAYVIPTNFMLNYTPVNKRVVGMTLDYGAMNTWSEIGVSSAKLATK
Chain of UniProt Q9Y294 (whole entry, looked up): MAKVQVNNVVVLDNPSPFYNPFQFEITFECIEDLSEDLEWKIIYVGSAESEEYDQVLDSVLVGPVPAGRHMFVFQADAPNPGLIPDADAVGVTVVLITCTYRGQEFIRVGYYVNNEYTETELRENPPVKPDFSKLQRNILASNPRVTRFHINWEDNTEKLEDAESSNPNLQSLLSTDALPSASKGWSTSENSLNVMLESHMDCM
Chain of UniProt P63165 (whole entry, looked up): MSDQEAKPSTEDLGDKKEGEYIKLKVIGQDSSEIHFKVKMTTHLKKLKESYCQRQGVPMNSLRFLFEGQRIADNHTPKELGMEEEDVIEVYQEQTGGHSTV

`CC[C@H](C)[C@H](NC(=O)[C@@H](NC(=O)[C@H](Cc1c[nH]c2ccccc12)NC(=O)[C@H](CCC(=O)O)NC(=O)[C@H](C)NC(=S)Nc1ccc2c(c1)C(=O)OC21c2ccc(O)cc2Oc2cc(O)ccc21)C(C)C)C(=O)N[C@H](C(=O)N[C@H](C(=O)N1CCC[C@H]1C(=O)N[C@@H](Cc1ccccc1)C(=O)N[C@@H](CC(C)C)C(=O)N[C@H](C(=O)N[C@@H](CC(N)=O)C(=O)N[C@@H](CC(C)C)C(=O)O)[C@@H](C)O)[C@@H](C)CC)C(C)C` has a Kd of 8.1 ± 0.9 µM (Rgg transcriptional regulator (Streptococcus pneumoniae, UniProt A0A0E7KI02); binder, fluorescence polarization; 20 min, pH 7.4, 20 °C, fluorescein-labelled peptide).
`CC[C@H](C)[C@H](NC(=O)[C@H](Cc1c[nH]cn1)NC(=O)[C@H](CCCCNC(=O)[C@@H](NC(=O)[C@H](CCCCN)NC(=O)[C@H](Cc1ccccc1)NC(=O)[C@H](CCCCNC(=O)[C@H](CC(C)C)NC(=O)[C@@H]1CCCN1C(=O)[C@H](CCCCN)NC(=O)CCS[C@@H]1O[C@H](CO)[C@H](O)[C@H](O)[C@H]1O)NC(=O)[C@H](CC(C)C)NC(=O)[C@@H]1CCCN1C(=O)[C@H](CCCCN)NC(=O)CCS[C@@H]1O[C@H](CO)[C@H](O)[C@H](O)[C@H]1O)[C@@H](C)CC)NC(=O)[C@@H](NC(=O)[C@H](CCCCN)NC(=O)[C@H](Cc1ccccc1)NC(=O)[C@H](CCCCNC(=O)[C@H](CC(C)C)NC(=O)[C@@H]1CCCN1C(=O)[C@H](CCCCN)NC(=O)CCS[C@@H]1O[C@H](CO)[C@H](O)[C@H](O)[C@H]1O)NC(=O)[C@H](CC(C)C)NC(=O)[C@@H]1CCCN1C(=O)[C@H](CCCCN)NC(=O)CCS[C@@H]1O[C@H](CO)[C@H](O)[C@H](O)[C@H]1O)[C@@H](C)CC)C(N)=O` has a Kd of 0.04 µM (lecA; binding, ITC; pH 7.5).
The Kd of `CC[C@H](C)[C@H](NC(=O)[C@H](Cc1c[nH]cn1)NC(=O)[C@H](CCCCNC(=O)[C@@H](NC(=O)[C@H](CCCCN)NC(=O)[C@H](Cc1ccccc1)NC(=O)[C@H](CCCCNC(=O)[C@H](CC(C)C)NC(=O)[C@@H]1CCCN1C(=O)[C@H](CCCCN)NC(=O)CCS[C@@H]1O[C@H](CO)[C@H](O)[C@H](O)[C@H]1O)NC(=O)[C@H](CC(C)C)NC(=O)[C@@H]1CCCN1C(=O)[C@H](CCCCN)NC(=O)CCS[C@@H]1O[C@H](CO)[C@H](O)[C@H](O)[C@H]1O)[C@@H](C)CC)NC(=O)[C@@H](NC(=O)[C@H](CCCCN)NC(=O)[C@H](Cc1ccccc1)NC(=O)[C@H](CCCCNC(=O)[C@H](CC(C)C)NC(=O)[C@@H]1CCCN1C(=O)[C@H](CCCCN)NC(=O)CCS[C@@H]1O[C@H](CO)[C@H](O)[C@H](O)[C@H]1O)NC(=O)[C@H](CC(C)C)NC(=O)[C@@H]1CCCN1C(=O)[C@H](CCCCN)NC(=O)CCS[C@@H]1O[C@H](CO)[C@H](O)[C@H](O)[C@H]1O)[C@@H](C)CC)C(N)=O` is reported as 0.4 ± 0.1 µM (lecA; isothermal titration calorimetry; pH 7.5, 25 °C, with: 25 mM CaCl2).
`N=C(N)NCCC[C@H](NC(=O)[C@H](Cc1ccccc1)NC(=O)[C@@H]1CCCN1C(=O)[C@H](CO)NC(=O)[C@H](Cc1ccccc1)NC(=O)CNC(=O)[C@@H]1CCCN1C(=O)[C@@H]1CCCN1C(=O)[C@@H](N)CCCNC(=N)N)C(=O)N[C@@H](CCCCNS(=O)(=O)c1ccc(C2=c3cc4c5c(c3Oc3c2cc2c6c3CCCN6CCC2)CCC[N+]=5CCC4)c(S(=O)(=O)[O-])c1)C(=O)O` has a Kd of 18 ± 0.7 µM (Oligopeptide-binding protein OppA (oppA, Lactococcus lactis subsp. lactis, UniProt Q07741); binding, fluorescence anisotropy; pH 6, 37 °C, with: dye-labelled peptide).
`CC(C)P(=S)(NP(=S)(C(C)C)C(C)C)C(C)C` has a Kd of 1340 µM (Alpha-amylase (Bacillus subtilis, UniProt P00691); fluorescence quenching; 298 K).
The Kd of `CC[C@H](C)[C@H](NC(=O)[C@H](CCCNC(=N)N)NC(=O)[C@H](CCCNC(=N)N)NC(=O)[C@H](C)NC(=O)[C@H](CC(C)C)NC(=O)[C@H](CCCNC(=N)N)NC(=O)[C@H](C)NC(=O)[C@H](Cc1ccc2ccccc2c1)NC(=O)[C@H](CCCCN)NC(=O)[C@H](CCC(=O)O)NC(C)=O)C(=O)N[C@@H](C)C(N)=O` is reported as 0.2 µM (Histone chaperone ASF1A (Homo sapiens, UniProt Q9Y294); binding, ITC; pH 7.5).
The Kd of `CSCC[C@@H]1NC(=O)[C@H](CO)NC(=O)[C@@H](NC(=O)[C@H](CCC(N)=O)NC(=O)[C@H](CCCNC(=N)N)NC(C)=O)CSCc2c(C)c(=O)n3c(=O)c(C)c(n23)CSC[C@@H](C(=O)N[C@@H](Cc2ccccc2)C(=O)N[C@@H](Cc2ccc(O)cc2)C(=O)N[C@@H](Cc2c[nH]cn2)C(=O)N[C@@H](CO)C(=O)N[C@@H](CCCCN)C(N)=O)NC(=O)[C@H]([C@@H](C)O)NC1=O` is reported as 0.57 µM (Proliferating cell nuclear antigen (PCNA, Homo sapiens, UniProt P12004); binding, SPR).
`N=C(N)NCCC[C@@H]1NC(=O)[C@@H](CCCCN)NC(=O)CCNC(=O)[C@@H](Cc2ccc3ccccc3c2)NC(=O)[C@H](CC(=O)O)NC(=O)[C@H](CCCCN)NC1=O` has a Kd of 211 µM (Endoplasmic reticulum chaperone BiP (HSPA5, Homo sapiens, UniProt P11021); binding, SPR; pH 7.4).
`CC(C)C[C@H](NC(=O)[C@H](CCCNC(=N)N)NC(=O)[C@H](CCC(=O)O)NC(=O)[C@H](CCCCN)NC(=O)[C@H](CCCNC(=N)N)NC(=O)[C@H](CCCCN)NC(=O)[C@H](CCC(=O)O)NC(=O)[C@H](CC(C)C)NC(=O)[C@H](Cc1ccccc1)NC(=O)[C@H](CCCNC(=N)N)NC(=O)[C@H](C)NC(=O)[C@H](CC(C)C)NC(=O)[C@H](CO)NC(=O)[C@H](C)NC(=O)[C@H](CCCCN)NC(=O)[C@H](CCCNC(=N)N)NC(=O)[C@H](C)NC(=O)[C@H](CCC(N)=O)NC(=O)[C@@H]1CCCN1C(=O)[C@@H](NC(=O)[C@H](CO)NC(=O)c1ccc2c(c1)C(=O)OC21c2ccc(N(C)C)cc2Oc2cc(N(C)C)ccc21)C(C)C)C(=O)O` has a Kd of 5 ± 1.1 µM (Transcription factor MYC3 (MYC3, Arabidopsis thaliana, UniProt Q9FIP9); binding, fluorescence anisotropy; pH 8.0, apparent Kd, with: 100 nM TMR-labelled JAZ peptide).
For `O=C(Cc1cccs1)N[C@H](B(O)O)c1cccc(C(=O)O)c1`, the Kd was 0.09 µM (Beta-lactamase ADC-7 (Acinetobacter baumannii, UniProt Q6DRA1)).
`CSCC[C@H](NC(=O)[C@@H]1CCCN1C(=O)CCOCCOCCOCCOCCNC(=O)CCCC[C@@H]1SC[C@@H]2NC(=O)N[C@@H]21)C(=O)N[C@@H](C)C(=O)N[C@@H](CO)C(=O)N[C@@H](CC(=O)O)C(=O)N1CCC[C@H]1C(=O)N[C@@H](CC(C)C)C(=O)NCC(=O)N[C@H](C(=O)N[C@H](C(=O)N[C@@H](CCCNC(=N)N)C(=O)N1CCC[C@H]1C(=O)N[C@@H](CCCNC(=N)N)C(=O)N[C@@H](C)C(=O)N[C@@H](CCCNC(=N)N)C(=O)N[C@@H](C)C(N)=O)C(C)C)C(C)C` gave a Kd of 3 µM (Klotho; binding, BLI).
`CC(C)C[C@H](NC(=O)[C@H](Cc1c[nH]cn1)NC(=O)[C@H](C)N)C(=O)N[C@@H](CCCNC(=N)N)C(=O)N[C@@H](Cc1ccc(O)cc1)C(=O)N[C@@H](Cc1c[nH]cn1)C(=O)N[C@@H](Cc1c[nH]cn1)C(=O)N[C@@H](Cc1c[nH]cn1)C(=O)N[C@@H](C)C(=O)N[C@H](C(=O)N1CCC[C@H]1C(=O)N[C@@H](C)C(=O)O)C(C)C` has a Kd of 0.124 µM (Small ubiquitin-related modifier 1 (Homo sapiens, UniProt P63165); binding, BLI).
With `CSCC[C@H](NC(C)=O)C(=O)N[C@@H](Cc1ccccc1)C(=O)N[C@@H](CC(N)=O)C(=O)N[C@H]1CSCc2cc3cc(c2)CSC[C@H](NC(=O)[C@H]([C@@H](C)O)NC(=O)[C@H](Cc2c[nH]cn2)NC(=O)[C@H](CO)NC(=O)[C@H](Cc2ccc(O)cc2)NC(=O)[C@H](Cc2ccccc2)NC(=O)[C@@H]2CCCN2C(=O)[C@H](CC(C)C)NC(=O)[C@H](CC(C)C)NC1=O)C(=O)N[C@@H](CO)C(=O)N[C@H](C(=O)NCC(=O)N[C@@H](CO)C(=O)NCC(=O)N[C@@H](CO)C(=O)NCC(=O)N[C@@H](CO)C(=O)N[C@@H](CC(=O)O)C(=O)N[C@@H](Cc1ccc(O)cc1)C(=O)N[C@@H](CCCCN)C(=O)N[C@@H](CC(=O)O)C(=O)N[C@@H](CC(=O)O)C(=O)N[C@@H](CC(=O)O)C(=O)N[C@@H](CC(=O)O)C(=O)N[C@@H](CCCCN)C(N)=O)CSC3` the Kd was > 10 µM (Fibroblast growth factor receptor 4 (FGFR4, Homo sapiens, UniProt P22455); binding, BLI).
`CC[C@H](C)[C@H](NC(=O)[C@H](Cc1c[nH]cn1)NC(=O)[C@H](CCCCNC(=O)[C@@H](NC(=O)[C@H](CCCCN)NC(=O)CSC[C@H](NC(=O)[C@H](Cc1ccccc1)NC(=O)[C@H](CCCCNC(=O)[C@H](CC(C)C)NC(=O)[C@@H]1CCCN1C(=O)[C@H](CCCCN)NC(=O)CCS[C@@H]1O[C@H](CO)[C@H](O)[C@H](O)[C@H]1O)NC(=O)[C@H](CC(C)C)NC(=O)[C@@H]1CCCN1C(=O)[C@H](CCCCN)NC(=O)C[C@@H]1O[C@@H](C)[C@@H](O)[C@@H](O)[C@@H]1O)C(N)=O)[C@@H](C)CC)NC(=O)[C@@H](NC(=O)[C@H](CCCCN)NC(=O)CSC[C@H](NC(=O)[C@H](Cc1ccccc1)NC(=O)[C@H](CCCCNC(=O)[C@H](CC(C)C)NC(=O)[C@@H]1CCCN1C(=O)[C@H](CCCCN)NC(=O)CCS[C@@H]1O[C@H](CO)[C@H](O)[C@H](O)[C@H]1O)NC(=O)[C@H](CC(C)C)NC(=O)[C@@H]1CCCN1C(=O)[C@H](CCCCN)NC(=O)C[C@@H]1O[C@@H](C)[C@@H](O)[C@@H](O)[C@@H]1O)C(N)=O)[C@@H](C)CC)C(N)=O` gave a Kd of 0.255 µM (lecA; binding, ITC; pH 7.5).
With `CC(C)C[C@H](NC(=O)[C@@H]1CCCN1C(=O)[C@H](CC(=O)O)NC(=O)[C@H](CO)NC(=O)[C@H](C)NC(=O)c1cc(-c2ccccc2)nc2ccccc12)C(=O)NCC(=O)N[C@H](C(=O)N[C@H](C(=O)N[C@@H](CCCNC(=N)N)C(=O)NCC(=O)N[C@@H](CCCNC(=N)N)C(=O)N[C@@H](C)C(=O)N[C@@H](CCCNC(=N)N)C(=O)N[C@H](CCCNC(=O)CCOCCOCCOCCOCCNC(=O)CCCC[C@@H]1SC[C@@H]2NC(=O)N[C@@H]21)C(N)=O)C(C)C)C(C)C` the Kd was 0.0015 ± 0.0006 µM (Klotho; binding, biolayer interferometry).
With `CC(C)C[C@H](NC(=O)[C@@H](NC(=O)[C@@H](NC(=O)CNC(=O)CNC(=O)CNC(=O)CNC(=O)CNC(=O)[C@H](CC(N)=O)NC(=O)[C@H](CCCNC(=N)N)NC(=O)[C@H](Cc1c[nH]cn1)NC(=O)[C@H](CCCNC(=N)N)NC(=O)[C@H](Cc1ccc(O)cc1)NC(=O)[C@@H]1CCCN1C(=O)[C@@H]1CCCN1C(=O)[C@@H]1CCCN1C(=O)[C@@H]1CCCN1C(=O)[C@H](CC(C)C)NC(=O)[C@@H](NC(=O)[C@@H](NC(=O)CN)[C@@H](C)O)C(C)C)[C@@H](C)O)C(C)C)C(=O)N1CCC[C@H]1C(=O)N[C@@H](C)C(=O)N[C@@H](C)C(=O)N1CCC[C@H]1C(=O)N[C@@H](Cc1ccc(O)cc1)C(=O)N[C@@H](CCCNC(=N)N)C(=O)N[C@@H](Cc1c[nH]cn1)C(=O)N[C@@H](CCCNC(=N)N)C(=O)N[C@@H](CC(N)=O)C(=O)O` the Kd was 27.1 µM (WW domain-containing oxidoreductase, WW1-WW2 tandem domains (WWOX, Homo sapiens, UniProt Q9NZC7); ITC; 20 °C).
`N[C@@H](CO)C(=O)N[C@@H](Cc1ccccc1)C(=O)N[C@@H](CO)C(=O)N[C@@H](CCC(=O)O)C(=O)O` has a Kd of > 0.1 µM (Lymphocyte antigen 96 (LY96, Homo sapiens, UniProt Q9Y6Y9); binding, SPR).
With `CC(C)C[C@H](NC(=O)[C@H](C)N)C(=O)N[C@H](C(=O)N[C@@H](CCCNC1=NC(=O)C(C)N1)C(=O)N[C@@H](CCC(=O)O)C(=O)N[C@@H](Cc1ccc(O)cc1)C(=O)N[C@H](C(=O)NCC(=O)O)[C@@H](C)O)[C@@H](C)O` (stereo partly drawn) the Kd was 0.044 µM (Advanced glycosylation end product-specific receptor (AGER, Homo sapiens, UniProt Q15109); binding, fluorescence; pH 6.5).

A few entries again:
`N[C@@H](CO)C(=O)N[C@@H](Cc1ccccc1)C(=O)N[C@@H](CO)C(=O)N[C@@H](CCC(=O)O)C(=O)O` has a Kd of > 0.1 µM (Lymphocyte antigen 96 (LY96, Homo sapiens, UniProt Q9Y6Y9); binding, SPR).
With `CC(C)C[C@H](NC(=O)[C@H](C)N)C(=O)N[C@H](C(=O)N[C@@H](CCCNC1=NC(=O)C(C)N1)C(=O)N[C@@H](CCC(=O)O)C(=O)N[C@@H](Cc1ccc(O)cc1)C(=O)N[C@H](C(=O)NCC(=O)O)[C@@H](C)O)[C@@H](C)O` (stereo partly drawn) the Kd was 0.044 µM (Advanced glycosylation end product-specific receptor (AGER, Homo sapiens, UniProt Q15109); binding, fluorescence; pH 6.5).
